Experimental data collected from several papers.
Each numbered part is a random draw from the data of one study; scales do not carry over between parts. Several values in a cell are separate wells, animals, samples, runs or records.

Sample 1 — method: RNA Bind-n-Seq; molecule type: RNA; sample: in vitro; tested at: 365 nM; reference: no-protein control; reading: higher = stronger binding
Target: RNA binding protein fox-1 homolog 2, RRM domain, GST-SBP tag (RBFOX2, Homo sapiens, UniProt O43251-10, residues 100-194)
Notes: natural RNA segment, single round, ends assumed
All sequences stand within: GGGAGUUCUACAGUCCGACGAUC … UGGAAUUCUCGGGUGCCAA
Residues (chain): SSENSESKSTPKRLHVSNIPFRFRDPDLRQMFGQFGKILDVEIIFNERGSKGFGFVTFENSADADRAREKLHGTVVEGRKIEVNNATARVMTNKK
Strand | RBNS enrichment (R)
UUGAUCGUUUGCUGCCAGCCCAGAAGGAUGAAGGAAAGAAGCACCUCACAGCUCCUUUCUAGGUCCUUCUUUCCUCAUUGGAAGCAAAGACCUAGCCAACAACAGCACCU | 0.273
CUCUCCAUCAGUCACAGACUCCCCCUGUUGCAAAGUGUCAGGCUGACUCGACAGUCACCGUAAAAUCUGAGUCAGUCACACACAGGCUGUCAGCCACGGCUUCCACUUGC | 0.349
ACAAAGGUCUUCUUCCCUCGCCCCUUCUCCAUCGUCCCAGGAAUCCCAGGGGGCAGCACAGCCGGCCCCCGGCCCACGUUUUCGGUGGAAAAUUAGAGUGAACAAGAACA | 0.294
UGUUUAUAAACAAGACUAAGUCUGACUUCAUAAGGGCUUUCUAAAACCAUUUCUGUCCAAGAGAAAAUGACUUUUUGCUUUGAUAUUAAAAAUUCAAUGAGUAAAACAAA | 0.41
AUGUCCCCAGUAUUUACUAUGAGUUGCUUCAGGUCAUUUUUUGAUUUUUUGUUUUUUCUUUUGGAAGUAGGUGUGGUAUAGUCGUUAGUAAAUGAAUCCCUGGGCAGGGA | 0.461
CUCCUCAAGACAGCCGAAGGGUGGGAUUGGUGCCGCUCUGGGAAGCGUGGCCCCAGGAGUUUUGUCCUCUGCAGUUUUUAAUGCAAGUUCACUGCCACUUUGACAAAAGC | 0.698
GUUUAAUGAACCUUGAGGAGAAACCGGCUCCUGCGGCUAAUGAGAUGUGCCAGGCCCAGUCUUCCCACCCCAGCUGCUCCACUGGCCACCGCUAGAGCCCCUCUCCCUAC | 0.755
GGGCAGAGCUCAGGACAUUUGCCAGUUCCAGAUCUCUUUUUCAGCAUUUUCAUGGAAUUAAUUUACACGUAAUGAGGGAAGUCCUAGGAUGGAUAGAAAAAAAGCACUUA | 0.634

Sample 2 — method: universal PBM; molecule type: double-stranded DNA, one strand shown; sample: in vitro; tested at: 600 nM; reading: higher = stronger binding
Target: Sal-like protein 4, full length isoform A (SALL4, Homo sapiens, UniProt Q9UJQ4, residues 1-1053)
Chain of UniProt Q9UJQ4 (whole entry, looked up): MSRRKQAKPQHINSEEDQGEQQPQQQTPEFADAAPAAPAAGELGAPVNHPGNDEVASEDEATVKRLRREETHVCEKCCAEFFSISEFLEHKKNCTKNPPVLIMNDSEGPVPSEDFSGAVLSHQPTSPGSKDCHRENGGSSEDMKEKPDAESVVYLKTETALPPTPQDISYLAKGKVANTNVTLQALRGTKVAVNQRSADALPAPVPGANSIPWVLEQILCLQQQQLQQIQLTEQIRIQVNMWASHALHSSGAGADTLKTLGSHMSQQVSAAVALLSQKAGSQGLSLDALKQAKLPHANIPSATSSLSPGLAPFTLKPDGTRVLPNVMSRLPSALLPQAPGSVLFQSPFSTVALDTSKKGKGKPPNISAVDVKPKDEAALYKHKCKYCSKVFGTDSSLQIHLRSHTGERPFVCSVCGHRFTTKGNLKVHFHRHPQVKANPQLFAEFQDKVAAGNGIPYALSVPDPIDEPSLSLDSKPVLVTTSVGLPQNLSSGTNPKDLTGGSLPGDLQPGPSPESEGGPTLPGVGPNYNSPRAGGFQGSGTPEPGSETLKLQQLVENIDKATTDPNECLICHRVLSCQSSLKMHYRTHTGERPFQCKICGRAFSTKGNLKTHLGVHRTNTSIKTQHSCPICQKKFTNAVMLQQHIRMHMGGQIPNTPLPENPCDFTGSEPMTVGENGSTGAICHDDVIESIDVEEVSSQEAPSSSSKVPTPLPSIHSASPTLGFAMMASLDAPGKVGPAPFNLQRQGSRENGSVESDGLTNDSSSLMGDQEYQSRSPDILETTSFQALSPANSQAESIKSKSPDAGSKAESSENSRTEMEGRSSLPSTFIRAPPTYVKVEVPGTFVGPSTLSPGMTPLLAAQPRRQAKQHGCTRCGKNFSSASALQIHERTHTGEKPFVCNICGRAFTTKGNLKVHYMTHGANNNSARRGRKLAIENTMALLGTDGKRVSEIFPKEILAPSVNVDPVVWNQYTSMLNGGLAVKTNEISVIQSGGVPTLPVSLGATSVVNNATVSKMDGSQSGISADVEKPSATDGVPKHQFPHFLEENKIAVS
Notes: 8-mer, flanks averaged, mean of replicates
Strand | E-score
CACTATCC | -0.0471
CAACGTGC | -0.12
GTAATAAC | 0.36
CGCGTCCC | -0.372
CATAAAAC | 0.277
ACCAATCT | 0.0181
GAACTCCC | -0.134
AGTCAAAG | 0.0265

Sample 3 — cell line: HEK-293T/ACE2; tested at: concentration not given; time: 16 (unit not given); reference: vehicle
SMILES | viability [%]
CN1C(=O)OC(C)(C)C1=O | 94.8
CN1CCC(=C2c3ccccc3CCn3c(C=O)cnc32)CC1 | 105
CCCN(CCC)S(=O)(=O)c1ccc(C(=O)O)cc1 | 98

Sample 4 — mode: inhibitor; tested at: 20 µM
Target: Replicase polyprotein 1ab, nsp13 helicase (rep, Severe acute respiratory syndrome coronavirus 2, UniProt P0DTD1)
SMILES | inhibition
CN1C(C(=O)Nc2ccccn2)=C(O)c2sc(Cl)cc2S1(=O)=O | 5.19%
CCOC(=O)CN1CCN(C(=O)/C=C/c2cc(OC)c(OC)c(OC)c2)CC1 | 4.43%
O=C(c1ccc(F)cc1)C1CCN(CCn2c(=O)[nH]c3ccccc3c2=O)CC1 | -3.6%
NC1(C(=O)O)CC1 | 6.77%
C=CCN1CC[C@]23CCCC[C@H]2[C@H]1Cc1ccc(O)cc13 | 0.75%
CC(=O)N[C@H]1[C@H]([C@H](O)[C@H](O)CO)OC(O)(C(=O)O)C[C@@H]1O (stereo partly drawn) | 2.48%
C[C@@H]1O[C@@H](O[C@H]2[C@H](Oc3cc(O)c4c(c3)O[C@H](c3ccc(O)cc3)CC4=O)O[C@H](CO)[C@@H](O)[C@@H]2O)[C@H](O)[C@H](O)[C@H]1O | 0.02%
C[C@H](Oc1cc(-c2cnn(C3CCNCC3)c2)cnc1N)c1c(Cl)ccc(F)c1Cl | 28.6%
O=CC[C@@H](O)[C@H](O)[C@H](O)CO | 1.59%
CCCOCCn1c(=O)c(N2CCN(CCO)CC2)nc2cnc(-c3ccc(OC)nc3)cc21 | 5.12%
CN(C)c1cccc(-c2c3c(=O)n(-c4ccccc4Cl)[nH]c3cc(=O)n2C)c1 | -3.63%
COc1ccc(-c2nc(-c3ccc(-c4cccc(Cl)c4)o3)[nH]c2-c2ccc(OC)cc2)cc1 | -1.39%
Cn1c(COP(=O)(NCCBr)NCCBr)cnc1[N+](=O)[O-] | -2.29%
CC12CC3CC(C)(C1)CC(N)(C3)C2 | 0.15%
COc1ccc(Cl)cc1NC(=O)Nc1cc(C)nc2ccccc12 | 4.96%
N#Cc1ccncn1 | 0.14%
O=C(O)COc1cccc(CN(Cc2ccc(-n3cccn3)cc2)S(=O)(=O)c2cccnc2)c1 | 5.86%
O=C(O)/C=C\c1c[nH]cn1 | -5.03% and 3.24%
Cc1c2oc3c(C)ccc(C(=O)N[C@@H]4C(=O)N[C@H](C(C)C)C(=O)N5CCC[C@H]5C(=O)N(C)CC(=O)N(C)[C@@H](C(C)C)C(=O)O[C@@H]4C)c3nc-2c(C(=O)N[C@@H]2C(=O)N[C@H](C(C)C)C(=O)N3CCC[C@H]3C(=O)N(C)CC(=O)N(C)[C@@H](C(C)C)C(=O)O[C@@H]2C)c(N)c1=O | 102%
NS(=O)(=O)c1cc2c(cc1C(F)(F)F)NCNS2(=O)=O | -2.85%
CC1/C=C/C=C/C=C/C=C/C=C/C=C/C=C/C(OC2O[C@H](C)[C@@H](O)[C@H](N)[C@@H]2O)CC(O)C(C(=O)O)C(O)CC(=O)CC(O)CC(O)CC(O)CC(=O)CCCC(=O)CC(=O)OC1C(C)CC(C)C(O)CC(=O)c1ccc(N)cc1 (stereo partly drawn) | 74%
Cc1noc(NS(=O)(=O)c2ccc(N)cc2)c1C | -1.09%
NNC(=O)CSc1nc2scc(-c3ccccc3)c2c(=O)n1-c1ccccc1 | 5.01%
C=C1C(=O)O[C@@H]2/C=C(\C)CC/C=C(\C)CC[C@@H]12 | 9.54%

Sample 5 — method: protein-binding microarray; molecule type: double-stranded DNA, one strand shown; sample: in vitro; tested at: 2540 nM top; notes: 60-bp whole probe; together with: salmon DNA 0.4 mg/ml; reference: random background probes; reading: higher = stronger binding; all sequences stand within: GCCTAGCAC … GTCTTGATTCGCTTGACGCTGCTG
Target: Interferon regulatory factor 3, full length, phosphomimetic (IRF3, Homo sapiens, UniProt Q14653, residues 1-427, S386D/S396D/S398D/S402D/T404D/S405D)
Target sequence (chain): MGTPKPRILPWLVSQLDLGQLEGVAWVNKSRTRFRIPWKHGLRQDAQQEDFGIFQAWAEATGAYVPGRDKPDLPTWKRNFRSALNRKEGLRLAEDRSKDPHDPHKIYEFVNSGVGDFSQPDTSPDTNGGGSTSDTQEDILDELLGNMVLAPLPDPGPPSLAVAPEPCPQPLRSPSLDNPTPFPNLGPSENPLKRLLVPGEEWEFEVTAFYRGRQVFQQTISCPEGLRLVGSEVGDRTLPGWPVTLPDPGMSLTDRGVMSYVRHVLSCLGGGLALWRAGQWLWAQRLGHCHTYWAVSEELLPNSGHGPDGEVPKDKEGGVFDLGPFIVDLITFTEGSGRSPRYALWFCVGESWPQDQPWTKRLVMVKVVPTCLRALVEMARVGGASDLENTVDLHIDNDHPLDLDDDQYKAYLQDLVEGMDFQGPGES
Strand | fitted relative affinity
TTAAGACTGGACACTGGGTTAGTGCTA | -0.774 z-score
AAACCTATAGGGCCTGACTTCGTGCTA | -0.209 z-score
TTAAATATCAGACTGGATTAGTGCTAG | 0.207 z-score
AATATTCTGCTTTGCAATAAGTGCTAG | 0.422 z-score
TTAGGTATCGGGTATCGTTTAGTGCTA | 1.61 z-score
TTAGGTATCGACTTTCGATTAGTGCTA | 1.49 z-score
TCAAATTCTCTTTTCACACTGTGCTAG | 1.9 z-score
TCACCCCTTGCTTTCCAACTGTGCTAG | 1.12 z-score

Sample 6 — organism: SARS-CoV-2; effect on: cytopathic effect; cells: Vero E6; tested at: 10 µM
SMILES | inhibition [%]
Cc1ccc(S(=O)(=O)/C=C/C#N)cc1 | -32.6
CN(C)S(=O)(=O)c1cccc(-n2sc3ccccc3c2=O)c1 | -1.9
O=C(O)C1=CC(=C(c2ccc(O)c(C(=O)O)c2)c2ccc(O)c(C(=O)O)c2)C=CC1=O | -9.2

Repeated from above (sample 4):
SMILES | inhibition
CN(C)c1cccc(-c2c3c(=O)n(-c4ccccc4Cl)[nH]c3cc(=O)n2C)c1 | -3.63%
CC12CC3CC(C)(C1)CC(N)(C3)C2 | 0.15%
CCCOCCn1c(=O)c(N2CCN(CCO)CC2)nc2cnc(-c3ccc(OC)nc3)cc21 | 5.12%
Cc1c2oc3c(C)ccc(C(=O)N[C@@H]4C(=O)N[C@H](C(C)C)C(=O)N5CCC[C@H]5C(=O)N(C)CC(=O)N(C)[C@@H](C(C)C)C(=O)O[C@@H]4C)c3nc-2c(C(=O)N[C@@H]2C(=O)N[C@H](C(C)C)C(=O)N3CCC[C@H]3C(=O)N(C)CC(=O)N(C)[C@@H](C(C)C)C(=O)O[C@@H]2C)c(N)c1=O | 102%
CC1/C=C/C=C/C=C/C=C/C=C/C=C/C=C/C(OC2O[C@H](C)[C@@H](O)[C@H](N)[C@@H]2O)CC(O)C(C(=O)O)C(O)CC(=O)CC(O)CC(O)CC(O)CC(=O)CCCC(=O)CC(=O)OC1C(C)CC(C)C(O)CC(=O)c1ccc(N)cc1 (stereo partly drawn) | 74%
C[C@H](Oc1cc(-c2cnn(C3CCNCC3)c2)cnc1N)c1c(Cl)ccc(F)c1Cl | 28.6%
COc1ccc(Cl)cc1NC(=O)Nc1cc(C)nc2ccccc12 | 4.96%
CN1C(C(=O)Nc2ccccn2)=C(O)c2sc(Cl)cc2S1(=O)=O | 5.19%
